Published values collected from several papers.
Every numbered part comes from another study and shows a few of its results, in no order. “And” joins repeats or separate records; there may be more than shown.
Sequence of UniProt Q15349 (whole entry, looked up): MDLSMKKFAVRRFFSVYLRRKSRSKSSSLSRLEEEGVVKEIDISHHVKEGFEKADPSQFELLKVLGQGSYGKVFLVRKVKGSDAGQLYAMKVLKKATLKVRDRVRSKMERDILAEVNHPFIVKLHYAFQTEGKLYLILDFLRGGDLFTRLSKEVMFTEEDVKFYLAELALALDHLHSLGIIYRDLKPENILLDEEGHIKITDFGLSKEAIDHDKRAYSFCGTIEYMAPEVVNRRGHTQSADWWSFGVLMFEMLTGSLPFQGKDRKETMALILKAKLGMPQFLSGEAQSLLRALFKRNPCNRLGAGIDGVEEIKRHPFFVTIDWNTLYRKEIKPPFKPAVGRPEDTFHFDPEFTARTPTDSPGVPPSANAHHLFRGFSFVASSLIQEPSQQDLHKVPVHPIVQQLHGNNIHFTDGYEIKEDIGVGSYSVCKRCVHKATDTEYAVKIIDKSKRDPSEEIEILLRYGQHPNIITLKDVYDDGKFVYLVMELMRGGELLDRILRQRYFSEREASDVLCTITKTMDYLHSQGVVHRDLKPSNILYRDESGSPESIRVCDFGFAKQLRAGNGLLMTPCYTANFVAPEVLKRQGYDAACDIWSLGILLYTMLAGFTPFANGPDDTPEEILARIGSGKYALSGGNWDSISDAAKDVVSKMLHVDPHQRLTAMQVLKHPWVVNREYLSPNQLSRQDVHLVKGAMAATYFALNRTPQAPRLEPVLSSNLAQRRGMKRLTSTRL
Sequence of UniProt P11362 (whole entry, looked up): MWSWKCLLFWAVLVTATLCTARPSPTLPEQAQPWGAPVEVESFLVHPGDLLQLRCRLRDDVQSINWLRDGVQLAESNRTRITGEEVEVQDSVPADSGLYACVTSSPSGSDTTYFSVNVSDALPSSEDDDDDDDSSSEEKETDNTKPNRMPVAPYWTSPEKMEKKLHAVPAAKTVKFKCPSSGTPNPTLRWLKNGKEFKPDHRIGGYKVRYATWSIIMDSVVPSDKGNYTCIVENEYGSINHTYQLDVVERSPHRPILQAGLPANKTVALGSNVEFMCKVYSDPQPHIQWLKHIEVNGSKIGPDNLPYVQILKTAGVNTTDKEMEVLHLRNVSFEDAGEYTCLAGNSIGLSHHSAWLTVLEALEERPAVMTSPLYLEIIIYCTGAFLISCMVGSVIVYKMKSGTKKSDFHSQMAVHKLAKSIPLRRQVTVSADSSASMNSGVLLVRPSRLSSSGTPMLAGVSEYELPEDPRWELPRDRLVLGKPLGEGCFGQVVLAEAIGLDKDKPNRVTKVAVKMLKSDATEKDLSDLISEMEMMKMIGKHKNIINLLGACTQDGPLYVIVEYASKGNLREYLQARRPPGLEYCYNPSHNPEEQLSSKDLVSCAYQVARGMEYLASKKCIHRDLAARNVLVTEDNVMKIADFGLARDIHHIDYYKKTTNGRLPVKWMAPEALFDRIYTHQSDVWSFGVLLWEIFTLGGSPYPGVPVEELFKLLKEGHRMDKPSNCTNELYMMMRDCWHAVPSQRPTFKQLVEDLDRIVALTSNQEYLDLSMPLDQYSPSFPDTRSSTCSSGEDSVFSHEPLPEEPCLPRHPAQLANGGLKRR
Sequence of UniProt Q8IW41 (whole entry, looked up): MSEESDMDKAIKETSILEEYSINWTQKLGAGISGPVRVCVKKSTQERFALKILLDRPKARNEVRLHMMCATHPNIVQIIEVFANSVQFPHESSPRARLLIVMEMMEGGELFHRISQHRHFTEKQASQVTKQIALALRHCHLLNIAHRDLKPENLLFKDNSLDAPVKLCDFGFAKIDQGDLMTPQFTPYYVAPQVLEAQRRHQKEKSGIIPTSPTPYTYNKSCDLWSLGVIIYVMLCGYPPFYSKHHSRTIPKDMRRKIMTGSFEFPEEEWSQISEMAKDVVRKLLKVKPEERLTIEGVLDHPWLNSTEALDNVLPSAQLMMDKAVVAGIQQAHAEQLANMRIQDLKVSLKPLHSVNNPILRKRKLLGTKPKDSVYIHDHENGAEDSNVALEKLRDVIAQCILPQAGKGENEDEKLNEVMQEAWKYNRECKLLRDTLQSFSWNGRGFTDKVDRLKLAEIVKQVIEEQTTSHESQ
Sequence of UniProt P29597 (whole entry, looked up): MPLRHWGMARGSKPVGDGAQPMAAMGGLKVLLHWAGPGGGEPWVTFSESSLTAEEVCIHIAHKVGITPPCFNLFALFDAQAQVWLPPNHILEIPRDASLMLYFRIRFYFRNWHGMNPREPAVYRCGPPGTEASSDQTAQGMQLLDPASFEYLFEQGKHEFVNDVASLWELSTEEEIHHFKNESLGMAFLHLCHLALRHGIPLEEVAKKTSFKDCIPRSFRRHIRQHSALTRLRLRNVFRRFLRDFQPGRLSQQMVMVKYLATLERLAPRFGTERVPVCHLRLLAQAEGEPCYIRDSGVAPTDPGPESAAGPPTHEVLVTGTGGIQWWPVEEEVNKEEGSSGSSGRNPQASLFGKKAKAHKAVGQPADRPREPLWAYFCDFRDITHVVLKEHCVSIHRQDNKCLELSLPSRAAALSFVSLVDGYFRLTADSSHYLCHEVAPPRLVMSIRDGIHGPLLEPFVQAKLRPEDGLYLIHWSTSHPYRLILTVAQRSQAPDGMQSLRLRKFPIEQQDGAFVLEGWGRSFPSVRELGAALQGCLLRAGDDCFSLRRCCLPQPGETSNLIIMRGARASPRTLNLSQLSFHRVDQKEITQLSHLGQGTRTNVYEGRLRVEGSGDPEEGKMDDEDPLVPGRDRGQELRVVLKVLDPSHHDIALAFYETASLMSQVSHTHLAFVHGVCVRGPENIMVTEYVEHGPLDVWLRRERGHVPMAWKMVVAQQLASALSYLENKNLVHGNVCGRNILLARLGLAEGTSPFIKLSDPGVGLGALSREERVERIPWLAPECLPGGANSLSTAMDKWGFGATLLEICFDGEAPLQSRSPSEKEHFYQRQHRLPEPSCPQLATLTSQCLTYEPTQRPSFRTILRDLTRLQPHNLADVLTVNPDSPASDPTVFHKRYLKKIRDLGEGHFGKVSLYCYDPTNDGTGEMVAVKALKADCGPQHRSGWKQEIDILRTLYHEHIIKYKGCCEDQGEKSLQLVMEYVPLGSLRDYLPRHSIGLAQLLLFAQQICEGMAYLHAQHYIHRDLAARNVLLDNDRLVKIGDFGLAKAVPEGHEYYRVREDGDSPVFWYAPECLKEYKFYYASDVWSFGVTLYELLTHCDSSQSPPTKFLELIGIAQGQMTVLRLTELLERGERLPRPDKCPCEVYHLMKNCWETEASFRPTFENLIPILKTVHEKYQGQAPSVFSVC
Sequence of UniProt Q00535 (whole entry, looked up): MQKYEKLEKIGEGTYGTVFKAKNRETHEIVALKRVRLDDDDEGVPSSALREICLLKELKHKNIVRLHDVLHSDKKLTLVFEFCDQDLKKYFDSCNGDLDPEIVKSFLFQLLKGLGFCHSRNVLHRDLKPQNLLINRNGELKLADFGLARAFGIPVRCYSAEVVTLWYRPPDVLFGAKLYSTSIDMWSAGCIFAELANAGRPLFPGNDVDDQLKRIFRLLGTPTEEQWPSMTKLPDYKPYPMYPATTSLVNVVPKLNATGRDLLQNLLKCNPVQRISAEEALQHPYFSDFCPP
Sequence of UniProt P68400 (whole entry, looked up): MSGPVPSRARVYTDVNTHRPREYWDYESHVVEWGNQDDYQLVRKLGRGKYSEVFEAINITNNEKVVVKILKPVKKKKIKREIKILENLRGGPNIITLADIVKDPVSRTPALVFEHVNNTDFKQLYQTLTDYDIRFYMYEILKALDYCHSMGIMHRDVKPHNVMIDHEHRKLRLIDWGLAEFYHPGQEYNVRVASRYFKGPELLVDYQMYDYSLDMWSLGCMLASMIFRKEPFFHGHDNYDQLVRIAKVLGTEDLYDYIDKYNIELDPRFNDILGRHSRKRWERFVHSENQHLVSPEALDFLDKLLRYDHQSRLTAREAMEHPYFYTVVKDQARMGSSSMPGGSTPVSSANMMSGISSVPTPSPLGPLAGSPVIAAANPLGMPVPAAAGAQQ

Series 1
Compound: Cc1ncsc1-c1ccc(C(CO)NC(=O)C2CC(O)CN2C(=O)C(C(C)C)n2cc(-c3ccc(COc4c(-c5c(C)c(F)cc6[nH]ncc56)c(C5CC5)cc5c(N6CC7CC6CN7)nc(OC6CCOCC6)nc45)cc3)nn2)cc1 (stereo not shown)
system	conditions	tumour volume
mouse, PK-59 xenograft	3 mg/kg, day 21	563 mm3 and 529 mm3 and 570 mm3 and 413 mm3 and 405 mm3
mouse, lung LXFA sample A PDX	30 mg/kg twice weekly, day 0	82.9 mm3 and 115 mm3 and 67.9 mm3 and 45.4 mm3 and 111 mm3 and 178 mm3 and 188 mm3 and 273 mm3
PK-1 xenograft, mouse	30 mg/kg twice weekly, day 0	142 mm3 and 166 mm3 and 225 mm3 and 146 mm3 and 152 mm3
mouse, PK-59 xenograft	10 mg/kg, day 10	313 mm3 and 351 mm3 and 239 mm3 and 339 mm3 and 413 mm3
GP5d xenograft, mouse	30 mg/kg once weekly, day 0	187 mm3 and 173 mm3 and 189 mm3 and 154 mm3 and 163 mm3
PK-1 xenograft, mouse	30 mg/kg twice weekly, day 14	135 mm3 and 173 mm3 and 172 mm3 and 96.9 mm3 and 149 mm3
GP5d xenograft, mouse	30 mg/kg twice weekly, day 14	225 mm3 and 136 mm3 and 119 mm3 and 172 mm3 and 228 mm3
HPAC xenograft, mouse	30 mg/kg twice weekly, day 11	233 mm3 and 250 mm3 and 264 mm3 and 224 mm3 and 354 mm3
PK-1 xenograft, mouse	30 mg/kg twice weekly, day 7	153 mm3 and 177 mm3 and 131 mm3 and 142 mm3 and 85.6 mm3
mouse, lung LXFA sample A PDX	10 mg/kg twice weekly, day 15	84.2 mm3 and 146 mm3 and 182 mm3 and 231 mm3 and 79.5 mm3 and 250 mm3 and 83.3 mm3 and 436 mm3

Series 2
Structure (SMILES): Cc1ccc(O)c(C)c1-c1cnc2[nH]c(-c3cnc(N4CCC5(CC4)CC(N4CCN(c6ccc(NC7CCC(=O)NC7=O)cc6F)CC4)CO5)nc3)cc2c1C#N (stereo not shown)
PKMYT1: Membrane-associated tyrosine- and threonine-specific cdc2-inhibitory kinase (PKMYT1, Homo sapiens, UniProt Q99640)
Sequence of UniProt Q99640 (whole entry, looked up): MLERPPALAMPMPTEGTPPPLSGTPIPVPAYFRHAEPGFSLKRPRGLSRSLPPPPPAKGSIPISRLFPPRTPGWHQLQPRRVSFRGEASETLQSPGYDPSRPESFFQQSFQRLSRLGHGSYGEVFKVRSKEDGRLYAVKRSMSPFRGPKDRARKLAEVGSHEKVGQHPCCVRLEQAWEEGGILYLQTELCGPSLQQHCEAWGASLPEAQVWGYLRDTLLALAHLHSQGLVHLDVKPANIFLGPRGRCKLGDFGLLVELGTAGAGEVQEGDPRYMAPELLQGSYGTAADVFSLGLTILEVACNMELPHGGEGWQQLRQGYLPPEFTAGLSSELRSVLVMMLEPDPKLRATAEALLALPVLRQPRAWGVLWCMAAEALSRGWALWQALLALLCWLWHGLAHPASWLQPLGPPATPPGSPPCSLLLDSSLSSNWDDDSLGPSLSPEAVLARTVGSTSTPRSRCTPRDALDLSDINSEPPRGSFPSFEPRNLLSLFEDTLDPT
tested on	test	conditions	inhibition
PKMYT1		5.1e-05 µM	-1.93%
HuCCT-1	refers to: CDK1 phospho-Thr14	4.12 nM	23.5%
MDA-MB-157	refers to: CDK1 phospho-Thr14	0.0169 nM	-58%
PKMYT1	cell-free assay, inhibitor, TR-FRET	152 pM	6.76%
HCC1599	refers to: CDK1 phospho-Thr14	0.0169 nM	-5.1%
HCC1599	refers to: CDK1 phospho-Thr14	37.04 nM	17%
MDA-MB-157	refers to: CDK1 phospho-Thr14	1000 nM	62%
MDA-MB-157	refers to: CDK1 phospho-Thr14	37.04 nM	15.2%
HuCCT-1	refers to: CDK1 phospho-Thr14	111.11 nM	64.6%

Series 3
SMILES: CCN1/C(=C/C=C2\CCCC(/C=C/C3=[N+](CC)c4ccccc4C3(C)C)=C2NCCCCCCCCN2CCC(Nc3nc4ccccc4n3Cc3ccc(F)cc3)CC2)C(C)(C)c2ccccc21
Cell line: U-87 MG
Concentration: concentration not given
Relative to: DMSO
test	log2 fold change
refers to: SLC16A14 mRNA	-1.88
refers to: ASAP3 mRNA	-1.3
refers to: SDC1 mRNA	-1.92
refers to: ZFAND2A mRNA	2.02
refers to: LRR1 mRNA	-1.33
refers to: SLC25A1 mRNA	-0.803
refers to: TSC22D1 mRNA	0.858
refers to: RHOBTB2 mRNA	-0.865
refers to: RAB9B mRNA	-1.03
refers to: DBNDD1 mRNA	-1.91
refers to: TUBB2A mRNA	-1.18
refers to: TNFSF14 mRNA	4.69
refers to: ABCC2 mRNA	-2.07
refers to: CXCL8 mRNA	3.69
refers to: RYBP mRNA	1.08

Series 4
Structure (SMILES): CN(C1COC1)C(C)(C)/C=C(\C#N)C(=O)N1CCC[C@H]1Cn1nc(-c2ccc(Oc3ccccc3)cc2F)c2c(N)ncnc21
FGR: Tyrosine-protein kinase Fgr (FGR, Homo sapiens, UniProt P09769)
Sequence of UniProt P09769 (whole entry, looked up): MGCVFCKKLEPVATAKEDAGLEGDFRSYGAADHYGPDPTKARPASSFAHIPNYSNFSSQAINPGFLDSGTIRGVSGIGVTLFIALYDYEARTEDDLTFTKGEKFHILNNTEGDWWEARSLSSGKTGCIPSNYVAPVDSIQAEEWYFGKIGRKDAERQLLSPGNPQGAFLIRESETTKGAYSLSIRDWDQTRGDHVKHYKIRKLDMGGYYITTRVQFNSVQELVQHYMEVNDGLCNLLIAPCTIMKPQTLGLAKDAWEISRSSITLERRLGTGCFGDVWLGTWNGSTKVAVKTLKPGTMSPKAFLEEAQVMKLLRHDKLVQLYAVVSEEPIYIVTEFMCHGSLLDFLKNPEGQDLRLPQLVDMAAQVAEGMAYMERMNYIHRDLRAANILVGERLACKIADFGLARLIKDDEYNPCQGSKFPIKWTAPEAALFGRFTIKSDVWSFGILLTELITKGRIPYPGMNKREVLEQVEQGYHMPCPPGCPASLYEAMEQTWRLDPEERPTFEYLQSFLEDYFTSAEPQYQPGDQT
target	test	conditions	inhibition
NTRK3 (Homo sapiens, UniProt Q16288)	kinase activity	1 µM	3%
FGFR1 (Homo sapiens, UniProt P11362)	kinase activity	1 µM	19%
FGR	kinase activity	0.1 µM	31%
TYK2 (Homo sapiens, UniProt P29597)	kinase activity	0.1 µM	-2%
NDRG1		1 µM, mean	-8%
RPS6KA2 (Homo sapiens, UniProt Q15349)	kinase activity	1 µM	5%
PIK3CG (Homo sapiens, UniProt P48736)	kinase activity	0.1 µM	-11%
YES1 (Homo sapiens, UniProt P07947)	kinase activity	0.1 µM	18%
MAPKAPK5 (Homo sapiens, UniProt Q8IW41)	kinase activity	0.1 µM	1%
CSNK2A1 (Homo sapiens, UniProt P68400)	kinase activity	0.1 µM	-8%
FGR	kinase activity	1 µM	65%
PASK (Homo sapiens, UniProt Q96RG2)	kinase activity	0.1 µM	3%
ROCK2 (Homo sapiens, UniProt O75116)	kinase activity	1 µM	1%
PRKD1 (Homo sapiens, UniProt Q15139)	kinase activity	1 µM	-5%
Cyclin-dependent kinase 5, with p25 (CDK5, Homo sapiens, UniProt Q00535)	kinase activity	0.1 µM	3%

A few entries again (series 2):
tested on	test	conditions	inhibition
MDA-MB-157	refers to: CDK1 phospho-Thr14	1000 nM	62%
MDA-MB-157	refers to: CDK1 phospho-Thr14	37.04 nM	15.2%
HuCCT-1	refers to: CDK1 phospho-Thr14	111.11 nM	64.6%
